{"data": "Published values gathered from unrelated publications", "cell line": "SN12C", "note": "Lines come from different studies, so protocols differ."}
{"Compound": "CCCCN1CCN(c2ccc3[nH]c(-c4ccc5[nH]c(-c6cc(OC)c(OC)c(OC)c6)nc5c4)nc3c2)CC1", "test": "SRB", "setting": "10 µM, 48 h", "quantity": "growth percent", "result": "80.2%"}
{"Compound": "O=C1NC(=NCc2cccs2)S/C1=C\\c1ccc2ncccc2c1", "test": "MTS", "setting": "NCI60 panel", "quantity": "IC50", "result": "> 10 µM"}
{"Compound": "C#C[C@@]1(O)[C@@H](CO)O[C@@H](n2cc(F)c3c(N)ncnc32)[C@@H]1O", "test": "SRB", "setting": "NCI-60 screen", "quantity": "TGI", "result": "4.74 µM"}
{"Compound": "CCCN1CCN(c2ccc3nc(-c4ccc5nc(-c6cc(OC)ccc6OC)[nH]c5c4)[nH]c3c2)CC1", "test": "SRB", "setting": "10 µM, 48 h", "quantity": "growth percent", "result": "99.2%"}
{"Compound": "Cn1cncc1C1=CN(c2ncnc3[nH]cnc23)CCS1", "setting": "renal cancer", "quantity": "GI50", "result": "15.5 µM"}
{"Compound": "CCOC(=O)CSc1nc(-c2ccc(Cl)cc2)c2c(NC(=O)c3ccccc3)nnc-2[nH]1", "test": "SRB", "setting": "10 µM, NCI60 single-dose screen", "how to read": "relative to: untreated", "quantity": "cell growth", "result": "97.9%"}
{"Compound": "CCCCN1CCN(c2ccc3[nH]c(-c4ccc5[nH]c(-c6ccc(OCC)cc6)nc5c4)nc3c2)CC1", "test": "SRB", "setting": "10 µM, 48 h", "quantity": "growth percent", "result": "76.8%"}
{"Compound": "Cc1n[nH]c2nc(-c3ccc(Cl)cc3)c3c(NC(=O)c4ccccc4)nnc-3n12", "test": "SRB", "setting": "10 µM, NCI60 single-dose screen", "how to read": "relative to: untreated", "quantity": "cell growth", "result": "104%"}
{"Compound": "C#C[C@@]1(O)[C@@H](CO)O[C@@H](n2ccc3c(N)ncnc32)[C@@H]1O", "test": "SRB", "setting": "NCI-60 screen", "quantity": "TGI", "result": "3.91 µM"}
{"Compound": "CSc1nc(-c2ccc(Cl)cc2)c2c(NC(=O)c3ccccc3)nnc-2[nH]1", "test": "SRB", "setting": "10 µM, NCI60 single-dose screen", "how to read": "relative to: untreated", "quantity": "cell growth", "result": "92.4%"}
{"Compound": "CCCCN1CCN(c2ccc3[nH]c(-c4ccc5[nH]c(-c6ccc(C(F)(F)F)cc6)nc5c4)nc3c2)CC1", "test": "SRB", "setting": "10 µM, 48 h", "quantity": "growth percent", "result": "-80.9%"}
{"Compound": "O=C(Nc1nnc2[nH]c(=S)[nH]c(-c3ccc(Cl)cc3)c1-2)c1ccccc1", "test": "SRB", "setting": "10 µM, NCI60 single-dose screen", "how to read": "relative to: untreated", "quantity": "cell growth", "result": "100%"}
{"Compound": "Cc1cc(C)n(C(=S)[S][Au][PH](CCCCCC[PH]([Au][S]C(=S)n2nc(C)cc2C)(c2ccccc2)c2ccccc2)(c2ccccc2)c2ccccc2)n1", "test": "cell growth, NCI-60 screen", "setting": "renal cancer", "quantity": "log10 TGI", "result": "> -4"}
{"Compound": "CCCCN1CCN(c2ccc3[nH]c(-c4ccc5[nH]c(-c6ccc(OCC)c(OCC)c6)nc5c4)nc3c2)CC1", "test": "SRB", "setting": "10 µM, 48 h", "quantity": "growth percent", "result": "18.8%"}
{"Compound": "Cc1cc(=O)[nH]n1-c1nc(-c2ccc(Cl)cc2)c2c(NC(=O)c3ccccc3)nnc-2[nH]1", "test": "SRB", "setting": "10 µM, NCI60 single-dose screen", "how to read": "relative to: untreated", "quantity": "cell growth", "result": "91.6%"}
{"note": "Repeated from above:"}
{"Compound": "Cc1n[nH]c2nc(-c3ccc(Cl)cc3)c3c(NC(=O)c4ccccc4)nnc-3n12", "test": "SRB", "setting": "10 µM, NCI60 single-dose screen", "how to read": "relative to: untreated", "quantity": "cell growth", "result": "104%"}
{"Compound": "CSc1nc(-c2ccc(Cl)cc2)c2c(NC(=O)c3ccccc3)nnc-2[nH]1", "test": "SRB", "setting": "10 µM, NCI60 single-dose screen", "how to read": "relative to: untreated", "quantity": "cell growth", "result": "92.4%"}
